Measured values pooled from the literature.
Every numbered part comes from another study and shows a few of its results, in no order.

Sample 1 — method: RNA Bind-n-Seq; form: RNA; medium: in vitro; concentration: 365 nM; relative to: no-protein control; direction: higher = stronger binding
Target: RNA binding protein fox-1 homolog 2, RRM domain, GST-SBP tag (RBFOX2, Homo sapiens, UniProt O43251-10, residues 100-194)
Setting: natural RNA segment, single round, ends assumed
Shared flanks, not repeated: GGGAGUUCUACAGUCCGACGAUC … UGGAAUUCUCGGGUGCCAA
Target sequence (chain): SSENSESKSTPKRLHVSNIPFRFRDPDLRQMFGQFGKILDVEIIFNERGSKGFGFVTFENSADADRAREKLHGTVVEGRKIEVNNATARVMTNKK
| Sequence | RBNS enrichment (R) |
| --- | --- |
| CUUGUCUCUGCUCUUAUGAAACUUGCUUAUUCUUGAAAACCUUCUGCAUUUCCAUUUUUUCCUCUCUUCCAAUUUAUUCUCCAUGUAACAGAGUAGUUUGGUUUUUAAAA | 0.564 |
| CCCUUGGAGCUAGUCCCCUCAGCCUCAACUUUGAUCUGGCCUUUAGCCUCAAAGCUGCUGUACCUGCACAUGGUCCUGAGAACAUCUCUCUAGGCCUGUACCACACCUCU | 0.204 |
| CCUUUUUGGUCAUUGUUAUAAUGCCAGCUUUAGGACAGAAAGAAUUAUAAGAAAACCAGCAUAAUACCUGAUAUAUUAAAAUGUAGUGCCUGUGAAACCUGUAUUAUACU | 2.33 |
| GGCUGCUGGACUUCCUGCAGGGGCUCCAGUGAAGCCCAGCACUGCUGCAGGGGGUGGGCUGCCUGCCUGCUCUGAGCUCUCUCUUGCACGCUCUCUCUUCUCUCCCAGGC | 3.57 |
| UCUCGCCUGGACCCAAGAGAGGCGACAGCUGUGGCUGGGGCUCUUGGUUUCCAGAGGGUCUGGACUGGUUUGGGUGCUUUAAAAUAGAUAUUUAGUUCAGUGGUGCUUAU | 0.916 |
| UAGAAACUGAAAAAUAAUCCAGUGACAUCAUUCUGGGUGUGUUCUCACUAGCUCGCGGGGCCACUUGCUGCCCAUGUGACGAAUAACAGAAGAUCUUAUCUUGCCAGGCC | 5.19 |
| CUCCGCCUCCCGACCAGAGGGGUCCCUCAUGCCUGGCUGGCAGCCUCCUGGCAAGUGAGAAAGCCCUUUAUGCAGCAAUAUAUCAUAGCAGGUGGCUGGGGACACUGCAU | 0.453 |
| UAUGCAACGUAAGAUGUCCUCCUUGAUAGAAGUCUUAGCUCCUGUGUUACAAGGGAGAACUCAUUUGAGAUCAGUCUGUUGGCAUUGCAAUGAAGUGCUUUGUAUCAGGA | 0.962 |
| AGGCUGGGCCACUCUGGUUAUGCACAGUCAGGCAAACUGUCCUUGUAGACGAGUCCCCGACUCUGGGAUACAUGAGGAUCAAUGCCCGUUUUCUCCCCGUGUGCUUUCCU | 0.323 |
| GAAGGACAGGGAGACAGCAACCAUCGCCUGACCACGCCGACCACAGGGCCUUGAAUCCUUUUUUGUUUUCAACAGUCUUGCUGAAUUAAGCAGAAAGGGCCUUGAAUCCU | 0.373 |
| AUGGCGAUGUUAACAAUUCUGCAUUUAGACAAGGUUUUGCAAAAGAUAUUGUGUUAGAAAAAUUUGAAACUAAAAGCUUCCCAAACAAAAUGGGAAACCUUACAGGACAU | 0.476 |
| UUCCCACUAGAAAAGGCGCUCCUGUGGUGGCCACCUCUGUCUUCCUACUGAGAACUUCCUGUUCCAGGUUUUAGAAUUUUCUUAUUGUCGUUAGGACCAAAUGUAGACUG | 0.529 |

Sample 2 — method: protein binding microarray; form: double-stranded DNA, one strand shown; medium: in vitro; concentration: not given; relative to: not given; direction: higher = stronger binding
Target: Histone acetyltransferase KAT6A, winged helix 1, GST fusion (KAT6A, Homo sapiens, UniProt Q92794, residues 1-85)
Setting: 8-mer, flanks averaged, mean of 2 arrays, mostly near background
Target sequence (chain): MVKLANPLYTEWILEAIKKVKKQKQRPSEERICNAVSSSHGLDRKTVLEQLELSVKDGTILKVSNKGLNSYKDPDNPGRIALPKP
| Sequence | E-score |
| --- | --- |
| ATCTTGCG | 0.0679 |
| AGACGAAC | -0.0341 |
| CGTTAATA | 0.103 |
| ATCTTACC | -0.0487 |
| GCATTGGC | 0.0766 |
| CATTAAAC | -0.112 |
| CCATGCTC | -0.209 |
| CAAGATAC | -0.154 |
| TCATTGGA | -0.144 |
| GACACCCC | 0.0504 |
| AGCACCTC | -0.0768 |
| CGTCATAC | 0.0608 |
| TGAGCCCA | -0.179 |
| AGAGTGCG | 0.173 |
| AATGTCCG | 0.246 |
| CCCTAACA | -0.068 |
| GAAGGATA | -0.093 |
| TGGCTAAA | 0.00378 |
| GGGTTTTA | 0.134 |
| GAGGTAAC | 0.0382 |
| AAGAGCTA | -0.0769 |
| CTGTGTTC | -0.307 |
| CTCTGTAA | -0.0452 |
| AGAAGAAC | -0.0799 |
| GGCGGCCC | 0.415 |

Sample 3 — method: competition protein-binding microarray; form: double-stranded DNA, one strand shown; medium: in vitro; concentration: 2 µM; together with: Cbf1 competitor, 0.05 µM; direction: higher = stronger binding; shared flanks, not repeated: … GTCTTGATTCGCTTGACGCTGCTG
Target: Phosphate system positive regulatory protein PHO4, full length, GST-tagged (PHO4, Saccharomyces cerevisiae, UniProt P07270, residues 1-312)
Setting: whole 60-bp probe, lowest competitor level
Construct (chain): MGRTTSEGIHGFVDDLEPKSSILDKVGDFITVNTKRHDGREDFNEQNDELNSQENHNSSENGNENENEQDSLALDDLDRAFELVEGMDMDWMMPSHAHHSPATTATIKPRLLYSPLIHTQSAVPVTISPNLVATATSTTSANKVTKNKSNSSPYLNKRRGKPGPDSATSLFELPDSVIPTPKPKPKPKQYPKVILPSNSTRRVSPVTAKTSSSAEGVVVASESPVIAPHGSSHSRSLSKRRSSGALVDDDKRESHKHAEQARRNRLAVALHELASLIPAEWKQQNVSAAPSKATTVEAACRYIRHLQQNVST
| Sequence | fluorescence intensity [a.u.] |
| --- | --- |
| AAAGCGGTAATTTGGCGGGTGGGTGCAGATATCTAT | 5190 |
| CCATTCCAACCAATGGATGTGACGCTCCAAGAGAAA | 3730 |
| CGCAGTGAACTTGGCCATGTGGGGCCATCCCAAGAT | 10400 |
| CGGGGTTAAGTTTTTCACGTGTTATGCTTGCAGCAG | 13700 |
| CGTTGCTTATTAAGTGACATGACGCTATTGTATTGT | 5080 |
| CCAAATAAAAGAATGTTCGTGCAAAAAGTTGCAAAA | 5960 |
| CCTTGGTCTGTAGAGCACATGGCATTTCCAGGTCTC | 10700 |
| GTAACTTGGCGCTCTCTCGTGCCAGTGGTGATTTTG | 7340 |
| TTAATGACTCCGGTGGTCGTGATGGTAATCTTGATA | 4750 |
| CTTGGCAAGTTTCCCCTCGTGGTGAAGGATGGCTCT | 10200 |
| ATCGATTCGAAATCGCACGTAGCTGGTCATACGGCC | 6740 |
| TACTTCCGTCGTTTGCACGTTGGCCAGAATGTCTCT | 12000 |
| TAATAGCTTGAAAAGCACGTGAAGGGCTTGAAGCGG | 15400 |
| GTCTTGTCTCATTTTCACGTGACGTTCCCCACTTCA | 11300 |
| TACCAGCACTTATAACAAATGATGACAGTAAGCGCA | 3960 |
| CATACCCAACCTTGATGAGTGGGTGAAGATATTTGT | 4250 |
| AGATTGCTTTTCTCACGCCTGTTTTACGTCTCCAGG | 3570 |
| AAAGCGGTAATTTGAGTCGTGGGTGCAGATATCTAT | 7750 |
| TAGAGGAAAGAAAGAAACGTGGGTAAAACAGGGGCC | 11900 |
| ATCCCCTCTGTAAGACACGTTGGTCCACTGTAGCTT | 11800 |
| CCGCGCAAAGCAGGCACCGTGCCGATATCTTTCTTT | 8510 |
| CCTCTGAGAGCGAGTCACGGCCCGCTGAAGGGAAAG | 3100 |
| AACCTACAAAACACCGACGTGTTGAGCGTAAGAACC | 6200 |
| CCAAATTATGATTTGCACGTATATGATCGTCTTTAT | 7130 |
| CGGGGTTAAGTTTGATGTGTGGGTGGCTTGCAGCAG | 5370 |

Sample 4 — method: RNA Bind-n-Seq; form: RNA; medium: in vitro; concentration: 200 nM; setting: whole 134-nt RNA, ends assumed; together with: 150 mM LiCl; relative to: input library; direction: higher = stronger binding; all molecules: 7-deaza-guanosine replaces G
Target: Ras GTPase-activating protein-binding protein 1, full length (G3BP1, Homo sapiens, UniProt Q13283)
Sequence of UniProt Q13283 (whole entry, looked up): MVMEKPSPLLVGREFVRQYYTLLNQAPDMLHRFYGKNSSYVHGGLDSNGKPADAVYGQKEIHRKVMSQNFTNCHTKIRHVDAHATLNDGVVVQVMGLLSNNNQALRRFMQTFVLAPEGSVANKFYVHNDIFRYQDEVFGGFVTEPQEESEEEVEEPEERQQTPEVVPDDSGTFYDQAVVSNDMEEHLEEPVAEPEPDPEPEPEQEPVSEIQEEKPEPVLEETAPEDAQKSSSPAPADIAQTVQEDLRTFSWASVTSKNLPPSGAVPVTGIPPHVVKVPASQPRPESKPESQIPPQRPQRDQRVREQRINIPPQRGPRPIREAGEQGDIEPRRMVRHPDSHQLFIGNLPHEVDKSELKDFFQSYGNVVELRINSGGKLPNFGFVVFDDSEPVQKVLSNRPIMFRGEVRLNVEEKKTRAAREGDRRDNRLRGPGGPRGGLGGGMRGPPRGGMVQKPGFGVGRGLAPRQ
Shared flanks, not repeated: GGGAGUUCUACAGUCCGACGAUC … UGGAAUUCUCGGGUGUCAAGG
| Sequence | log2 enrichment |
| --- | --- |
| UCCUGUGCUACACAUCGUAUGUACCGAAUCGGGGAAAAAGGGGAAAAAAAGGGGAGGGGAAAGUAUUAUGUUACGCCGUUCGGAUCUGCA | 0.484 |
| CUGUGCUACACAUCGUAUGUACCGAAUCGGGGCCCCCCCGGCCCCCCCGGCCCCCCCGGGGAAAGUAUUAUGUUACGCCGUUCGGAUCUG | 0.394 |
| UGGUGGACAGAAGGCACUGCAGCCUGAAAUGGCAGAGUCUGGUGCUGACGAUCCGCGAGAAGAUCAAUGCUGCCAUCCAGGACAUGCCAG | -1.43 |
| AGUCCUGUGCUACACAUCGUAUGUACCGAAUCGGUUUUUGGAAAAAGGAAAAAAAGGAAAGUAUUAUGUUACGCCGUUCGGAUCUGCACU | -1.8 |
| GUCCUGUGCUACACAUCGUAUGUACCGAAUCAAACCCCCCCAAAUUUAAAUUUUUAAAAAAGUAUUAUGUUACGCCGUUCGGAUCUGCAC | 1.12 |
| UCAAGGGUUAUACACGGAAAGCCGCUGCGCUGGAAGCGAUGAAGGACUACACCAAAGCCAUGGAUGUGUACCAGAAGGCGCUAGACCUGG | -0.496 |
| CUCAAGUCCUGUGCUACACAUCGUAUGUACCGAAUCGGGGCGGCGGGGCGGGGAAAGUAUUAUGUUACGCCGUUCGGAUCUGCACUUCCA | -0.667 |
| CCUGUGCUACACAUCGUAUGUACCGAAUCGGGGCCCCCCCGGCCCCCCCGGGCCCCCCCGGAAAGUAUUAUGUUACGCCGUUCGGAUCUG | 1.2 |
| CCUGUGCUACACAUCGUAUGUACCGAAUCGGGGCCCCCCCGGCCCCCCCGGCCCCCCCGGAAAGUAUUAUGUUACGCCGUUCGGAUCUGC | 0.604 |
| CCUCAAGUCCUGUGCUACACAUCGUAUGUACCGAAUCGGAAAAAGGAGGUGGAAAGUAUUAUGUUACGCCGUUCGGAUCUGCACUUCCAG | 0.176 |
| UCAAGUCCUGUGCUACACAUCGUAUGUACCGAAUCGGAAAGGAAAAAGGUUUGGAAAGUAUUAUGUUACGCCGUUCGGAUCUGCACUUCC | -1.26 |

Excerpt of the above (sample 2):
| Sequence | E-score |
| --- | --- |
| AGAAGAAC | -0.0799 |
| GCATTGGC | 0.0766 |
| TGAGCCCA | -0.179 |
| CAAGATAC | -0.154 |
| GAGGTAAC | 0.0382 |
